Measured values of several laboratories.
Parts stem from different laboratories: compare values within a part only. Changes are numbered by the printed parent chain.

Sample 1 — method: RNAcompete; form: RNA; sample: in vitro; tested at: 20 nM; setting: 7-mer, probes averaged, single round; relative to: mean of 7-mers; direction: higher = stronger binding
Target: PABPC1L2, full length, GST fusion (mouse, UniProt A0ABA7IW68)
Construct (chain): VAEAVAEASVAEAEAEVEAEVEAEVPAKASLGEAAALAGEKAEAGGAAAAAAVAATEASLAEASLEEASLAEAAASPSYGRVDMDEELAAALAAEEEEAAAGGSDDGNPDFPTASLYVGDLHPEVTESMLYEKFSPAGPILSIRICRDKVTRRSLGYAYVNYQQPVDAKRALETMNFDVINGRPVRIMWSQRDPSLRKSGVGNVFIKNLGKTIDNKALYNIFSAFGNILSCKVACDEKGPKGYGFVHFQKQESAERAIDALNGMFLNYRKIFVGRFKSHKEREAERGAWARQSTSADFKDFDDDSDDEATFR
| Sequence | 7-mer Z-score |
| --- | --- |
| UUCAUGU | -0.353 |
| GCCCGAG | -0.231 |
| CACCGUC | -0.322 |
| GUGUCGG | -0.00652 |
| AUUUUAA | -0.0971 |
| UGAAGGA | 0.0243 |
| UCACAGG | -0.0826 |
| CGCCUCU | -0.383 |
| GGCCUCA | -0.173 |
| CCGACCC | -0.24 |
| UGGCACG | -0.0518 |

Sample 2 — method: RNA Bind-n-Seq; form: RNA; sample: in vitro; tested at: 1 µM; setting: whole 134-nt RNA, ends assumed; with: 150 mM KCl; relative to: input library; direction: higher = stronger binding
Target: Ras GTPase-activating protein-binding protein 1, RRM domain (G3BP1, Homo sapiens, UniProt Q13283)
Chain of UniProt Q13283 (whole entry, looked up): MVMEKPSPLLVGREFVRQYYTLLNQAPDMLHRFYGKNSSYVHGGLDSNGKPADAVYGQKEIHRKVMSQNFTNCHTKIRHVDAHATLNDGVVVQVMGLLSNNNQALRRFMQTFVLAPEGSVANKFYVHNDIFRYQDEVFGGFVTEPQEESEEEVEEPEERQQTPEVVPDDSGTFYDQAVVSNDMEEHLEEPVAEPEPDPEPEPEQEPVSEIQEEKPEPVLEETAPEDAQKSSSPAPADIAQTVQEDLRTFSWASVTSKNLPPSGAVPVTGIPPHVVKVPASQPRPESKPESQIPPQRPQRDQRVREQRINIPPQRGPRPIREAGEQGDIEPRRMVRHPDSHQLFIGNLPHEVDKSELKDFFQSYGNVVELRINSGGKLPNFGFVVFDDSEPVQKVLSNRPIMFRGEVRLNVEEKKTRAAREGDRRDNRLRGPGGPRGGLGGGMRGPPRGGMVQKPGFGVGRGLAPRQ
All sequences stand within: GGGAGUUCUACAGUCCGACGAUC … UGGAAUUCUCGGGUGUCAAGG
| Sequence | log2 enrichment |
| --- | --- |
| UGUCAUGGAUUCAAGUUAUUAAAAGCAUAAGUUUGGAAGACAGGCUUGCCGAAAUUGAGGACAUGAUUAAAAUUGCAGUGAAGUUUGAAA | -0.256 |
| AGUCCUGUGCUACACAUCGUAUGUACCGAAUCGGGGAAAAGGAAAAGGGGAAAAGGGAAAGUAUUAUGUUACGCCGUUCGGAUCUGCACU | 0.0635 |
| AAGUCCUGUGCUACACAUCGUAUGUACCGAAUCGGGUUUGGGAAAAAAAGGGUGGGAAAGUAUUAUGUUACGCCGUUCGGAUCUGCACUU | 0.608 |
| UCCUCAAGUCCUGUGCUACACAUCGUAUGUACCGAAUCGGGGAGGAGGGAGGAAAGUAUUAUGUUACGCCGUUCGGAUCUGCACUUCCAG | -0.241 |
| CACAGACAACACGCACCCACACAGACACAGAGGGAAGGGGUUGGGAUGGAGACAGGGUGCACAGCAGGGCGGGGUAGGACCCCAGCCCCU | -0.13 |
| AAGUCCUGUGCUACACAUCGUAUGUACCGAAUCGGGAAAGGGAAAGGGAAAAAGGGAAAGUAUUAUGUUACGCCGUUCGGAUCUGCACUU | 0.353 |
| UCCUGUGCUACACAUCGUAUGUACCGAAUCGGGAAAAAAGGAAAAAAGGAAAAAAGGGGAAAGUAUUAUGUUACGCCGUUCGGAUCUGCA | -0.0673 |
| AAGUCCUGUGCUACACAUCGUAUGUACCGAAUCGGGGAAAGGGGUGGGGUUUGGGGAAAGUAUUAUGUUACGCCGUUCGGAUCUGCACUU | 0.687 |
| UCCUCAAGUCCUGUGCUACACAUCGUAUGUACCGAAUCGGUGGAGGUUUGGAAAGUAUUAUGUUACGCCGUUCGGAUCUGCACUUCCAGC | -0.278 |
| CACAGACAACACGCACCCACACAGACACAGAGGGAAGGGGUUGGGAUGGGGACAGGGUGCACAGCAGGGCGGGGUAGGCCCCCAGCCCCU | -0.529 |
| ACAAGUGGAGGAGAAGAACUUAGAAGAACUAGAGGAGAAAUCUACUACUCCUCCUCCGGCAGAACCUGUUUCUCUGCCACAAGAACCACC | -0.0238 |

Sample 3 — target: CCNA2, cyclin fold, Cln2 fusion (human); method: yeast growth competition, sequencing; sample: yeast; setting: strong parent motif; relative to: not given; direction: higher = stronger binding
Starting sequence: CDKN1B docking peptide (human); PSACRNLFGPVDH
| Variant | normalised enrichment score |
| --- | --- |
| N6C | 3.22 |
| D12V | 3.4 |
| N6W | 1.31 |
| S2K | 5.23 |
| G9N | 1.43 |
| A3W | 2.29 |
| L7A | 0.334 |
| S2W | 1.7 |
| H13P | 4.15 |

Further values, each from its own experiment
| Substance | target | test | test system | setting | how to read | endpoint | value |
| --- | --- | --- | --- | --- | --- | --- | --- |
| PhoQ, residues 284 288 289 292 302 303 AEGLLW | PhoP, residues 12 14 15 18 19 STWGI (Escherichia coli, UniProt P23836) | Sort-seq, refers to: YFP reporter | E. coli | PhoQ-PhoP variant library, with: 10 µM Mg2+ | relative to: high Mg2+ state, higher = stronger signaling | fold induction | 1.5 |
